Results of several laboratories.
Every numbered part comes from another study and shows a few of its results, in no order. “And” joins repeats or separate records; there may be more than shown.
UniProt P08173, sequence (whole entry, looked up): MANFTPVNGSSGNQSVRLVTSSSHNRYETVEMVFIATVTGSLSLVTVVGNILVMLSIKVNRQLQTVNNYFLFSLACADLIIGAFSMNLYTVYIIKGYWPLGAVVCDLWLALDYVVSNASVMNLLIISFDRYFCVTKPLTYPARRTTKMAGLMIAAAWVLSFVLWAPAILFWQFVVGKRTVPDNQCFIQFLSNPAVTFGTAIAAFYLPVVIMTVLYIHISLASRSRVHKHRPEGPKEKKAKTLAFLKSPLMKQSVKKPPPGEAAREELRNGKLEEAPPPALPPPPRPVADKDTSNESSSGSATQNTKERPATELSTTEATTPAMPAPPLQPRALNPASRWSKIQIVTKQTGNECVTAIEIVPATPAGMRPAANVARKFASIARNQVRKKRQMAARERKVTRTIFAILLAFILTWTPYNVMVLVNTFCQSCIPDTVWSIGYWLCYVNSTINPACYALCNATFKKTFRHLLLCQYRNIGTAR
UniProt P34969, sequence (whole entry, looked up): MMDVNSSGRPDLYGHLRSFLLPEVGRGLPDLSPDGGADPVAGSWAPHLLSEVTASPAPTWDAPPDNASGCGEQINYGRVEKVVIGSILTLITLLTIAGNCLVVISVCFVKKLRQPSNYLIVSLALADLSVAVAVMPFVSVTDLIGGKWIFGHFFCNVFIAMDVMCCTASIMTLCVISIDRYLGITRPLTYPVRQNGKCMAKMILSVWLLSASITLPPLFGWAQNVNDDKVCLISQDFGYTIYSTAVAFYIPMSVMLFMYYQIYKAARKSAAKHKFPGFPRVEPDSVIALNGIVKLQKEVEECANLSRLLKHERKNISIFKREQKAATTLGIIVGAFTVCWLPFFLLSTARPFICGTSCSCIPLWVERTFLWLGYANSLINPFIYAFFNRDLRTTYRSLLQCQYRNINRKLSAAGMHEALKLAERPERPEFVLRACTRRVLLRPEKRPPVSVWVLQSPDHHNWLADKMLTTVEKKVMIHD
UniProt P13945, sequence (whole entry, looked up): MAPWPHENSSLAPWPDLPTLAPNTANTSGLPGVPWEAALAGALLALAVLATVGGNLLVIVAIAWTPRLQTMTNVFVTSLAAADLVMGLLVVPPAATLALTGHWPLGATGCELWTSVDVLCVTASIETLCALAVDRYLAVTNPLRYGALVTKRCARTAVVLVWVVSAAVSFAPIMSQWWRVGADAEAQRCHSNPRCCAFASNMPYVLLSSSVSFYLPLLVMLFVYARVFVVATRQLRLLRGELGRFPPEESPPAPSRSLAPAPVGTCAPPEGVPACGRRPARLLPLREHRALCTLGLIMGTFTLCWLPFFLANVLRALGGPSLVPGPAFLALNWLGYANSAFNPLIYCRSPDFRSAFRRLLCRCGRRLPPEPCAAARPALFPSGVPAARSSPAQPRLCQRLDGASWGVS
UniProt P21728, sequence (whole entry, looked up): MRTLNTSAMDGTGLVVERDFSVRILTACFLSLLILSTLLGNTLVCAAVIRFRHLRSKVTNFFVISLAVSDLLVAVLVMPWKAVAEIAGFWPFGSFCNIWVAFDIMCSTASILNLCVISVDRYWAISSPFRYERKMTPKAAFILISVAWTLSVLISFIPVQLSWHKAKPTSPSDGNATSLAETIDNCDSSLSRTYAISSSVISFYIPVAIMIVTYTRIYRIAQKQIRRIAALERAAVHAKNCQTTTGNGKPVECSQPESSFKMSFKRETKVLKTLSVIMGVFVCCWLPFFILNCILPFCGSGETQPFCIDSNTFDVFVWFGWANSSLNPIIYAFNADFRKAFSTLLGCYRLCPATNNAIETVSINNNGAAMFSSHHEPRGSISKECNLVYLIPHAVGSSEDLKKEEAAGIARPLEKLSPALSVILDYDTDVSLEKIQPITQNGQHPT
UniProt P18825, sequence (whole entry, looked up): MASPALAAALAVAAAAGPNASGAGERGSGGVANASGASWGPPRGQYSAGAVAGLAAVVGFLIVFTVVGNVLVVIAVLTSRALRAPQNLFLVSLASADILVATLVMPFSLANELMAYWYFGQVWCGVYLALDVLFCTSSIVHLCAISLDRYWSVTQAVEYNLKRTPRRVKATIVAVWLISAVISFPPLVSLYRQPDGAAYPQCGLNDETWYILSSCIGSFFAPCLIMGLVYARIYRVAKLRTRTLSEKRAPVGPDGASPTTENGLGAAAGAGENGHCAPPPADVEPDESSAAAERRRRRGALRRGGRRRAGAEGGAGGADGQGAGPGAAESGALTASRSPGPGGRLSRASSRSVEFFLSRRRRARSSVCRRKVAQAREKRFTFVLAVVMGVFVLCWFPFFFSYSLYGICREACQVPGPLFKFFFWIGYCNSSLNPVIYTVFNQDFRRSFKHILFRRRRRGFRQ
UniProt P18089, sequence (whole entry, looked up): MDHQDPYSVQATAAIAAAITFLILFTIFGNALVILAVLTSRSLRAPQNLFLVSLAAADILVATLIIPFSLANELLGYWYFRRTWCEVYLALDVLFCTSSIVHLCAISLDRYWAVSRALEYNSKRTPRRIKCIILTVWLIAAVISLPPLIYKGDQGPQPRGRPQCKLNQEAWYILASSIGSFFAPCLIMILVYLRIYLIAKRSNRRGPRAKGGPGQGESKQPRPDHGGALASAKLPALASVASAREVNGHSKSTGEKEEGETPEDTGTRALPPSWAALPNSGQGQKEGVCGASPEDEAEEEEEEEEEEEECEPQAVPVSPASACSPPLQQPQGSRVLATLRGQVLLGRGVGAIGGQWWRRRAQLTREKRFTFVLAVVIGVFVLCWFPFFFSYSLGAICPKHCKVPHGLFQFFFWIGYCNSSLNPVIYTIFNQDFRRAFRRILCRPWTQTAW
UniProt P35367, sequence (whole entry, looked up): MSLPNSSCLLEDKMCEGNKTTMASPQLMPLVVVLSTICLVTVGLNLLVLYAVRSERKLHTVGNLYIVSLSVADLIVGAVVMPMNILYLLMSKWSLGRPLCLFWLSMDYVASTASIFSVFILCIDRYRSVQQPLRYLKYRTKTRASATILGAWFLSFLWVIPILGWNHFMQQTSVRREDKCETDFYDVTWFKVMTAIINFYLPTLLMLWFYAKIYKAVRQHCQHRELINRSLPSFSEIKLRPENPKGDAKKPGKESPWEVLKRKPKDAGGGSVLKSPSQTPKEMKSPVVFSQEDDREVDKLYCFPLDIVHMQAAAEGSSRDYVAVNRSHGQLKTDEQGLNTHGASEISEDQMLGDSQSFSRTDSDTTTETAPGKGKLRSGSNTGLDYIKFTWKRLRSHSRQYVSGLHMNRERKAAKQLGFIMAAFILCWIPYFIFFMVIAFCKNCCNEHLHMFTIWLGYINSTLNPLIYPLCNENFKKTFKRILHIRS
UniProt Q9H3N8, sequence (whole entry, looked up): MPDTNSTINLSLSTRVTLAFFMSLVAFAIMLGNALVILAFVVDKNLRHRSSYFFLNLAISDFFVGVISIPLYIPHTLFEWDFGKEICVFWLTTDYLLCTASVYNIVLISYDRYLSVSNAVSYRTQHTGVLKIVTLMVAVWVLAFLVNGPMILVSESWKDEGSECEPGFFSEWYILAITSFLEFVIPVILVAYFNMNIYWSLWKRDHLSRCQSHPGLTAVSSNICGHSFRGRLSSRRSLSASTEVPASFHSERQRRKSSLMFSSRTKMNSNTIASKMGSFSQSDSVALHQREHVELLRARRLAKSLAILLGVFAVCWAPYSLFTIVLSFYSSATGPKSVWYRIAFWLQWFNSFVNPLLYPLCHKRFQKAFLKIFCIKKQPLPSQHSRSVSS

Set 1
Target: Dual serine/threonine and tyrosine protein kinase (DSTYK, Homo sapiens, UniProt Q6XUX3)
UniProt Q6XUX3, sequence (whole entry, looked up): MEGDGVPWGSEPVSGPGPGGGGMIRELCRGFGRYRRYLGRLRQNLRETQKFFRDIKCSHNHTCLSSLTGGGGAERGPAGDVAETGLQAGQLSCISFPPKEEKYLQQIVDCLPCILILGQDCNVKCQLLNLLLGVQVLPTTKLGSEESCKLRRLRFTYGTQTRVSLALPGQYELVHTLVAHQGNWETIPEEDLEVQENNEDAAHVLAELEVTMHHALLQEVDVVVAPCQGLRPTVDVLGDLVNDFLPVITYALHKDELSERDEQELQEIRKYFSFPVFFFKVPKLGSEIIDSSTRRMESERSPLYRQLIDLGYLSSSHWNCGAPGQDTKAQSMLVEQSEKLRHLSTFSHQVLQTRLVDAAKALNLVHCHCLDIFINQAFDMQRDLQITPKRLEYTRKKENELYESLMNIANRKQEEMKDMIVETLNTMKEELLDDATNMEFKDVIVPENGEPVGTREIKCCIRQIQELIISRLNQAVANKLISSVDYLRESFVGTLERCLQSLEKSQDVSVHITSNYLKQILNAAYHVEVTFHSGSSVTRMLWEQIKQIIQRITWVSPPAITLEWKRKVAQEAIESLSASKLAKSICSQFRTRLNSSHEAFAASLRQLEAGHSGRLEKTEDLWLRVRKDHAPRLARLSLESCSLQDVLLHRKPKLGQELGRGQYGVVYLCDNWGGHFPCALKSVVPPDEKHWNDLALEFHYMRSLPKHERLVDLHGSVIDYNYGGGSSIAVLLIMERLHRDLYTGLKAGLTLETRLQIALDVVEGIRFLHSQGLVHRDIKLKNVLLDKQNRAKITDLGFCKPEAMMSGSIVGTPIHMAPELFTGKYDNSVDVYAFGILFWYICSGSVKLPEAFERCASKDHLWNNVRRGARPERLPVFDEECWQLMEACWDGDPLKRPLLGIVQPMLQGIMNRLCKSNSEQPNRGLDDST
Observed: enzyme activity
Mode: inhibitor
Tested at: 0.5 µM
Relative to: control
With `CCc1[nH]c(-c2ccc(OC)cc2)nc1-c1ccncc1` the remaining activity was 99.6%.
`O=S(=O)(NCCNC/C=C/c1ccc(Br)cc1)c1cccc2cnccc12` gave a remaining activity of 91.6%.
For `COc1ccc(S(=O)(=O)N(CCO)c2ccccc2CN(C)CC=Cc2ccc(Cl)cc2)cc1`, the remaining activity was 93.5%.
`Cc1ccc(NC2=CC(=O)c3sc(C)nc3C2=O)cc1` gave a remaining activity of 76.1%.
With `Nc1nc(Nc2ccc(S(N)(=O)=O)cc2)nn1C(=O)c1c(F)cccc1F` the remaining activity was 86.2%.
`NC(=O)c1ccc(N(C(N)=O)c2c(F)cccc2F)nc1-c1ccc(F)cc1F` has a remaining activity of 101%.
`Nc1nccc(-c2c(-c3ccc(F)cc3)ncn2C2CCNCC2)n1` gave a remaining activity of 102%.
For `O=C1Cc2c([nH]c3ccc([N+](=O)[O-])cc23)-c2ccccc2N1`, the remaining activity was 90%.
For `CC(C)(C)n1nc(Cc2cccc3ccccc23)c2c(N)ncnc21`, the remaining activity was 91.4%.
With `COc1cc(Nc2c(C#N)cnc3cc(OCCCN4CCN(C)CC4)c(OC)cc23)c(Cl)cc1Cl` the remaining activity was 104%.
`CSc1nc(-c2ccnc(N[C@@H](C)c3ccccc3)c2)c(-c2ccc(F)cc2)[nH]1` (racemic) gave a remaining activity of 102%.
The remaining activity of `N#CC(=C(N)Sc1ccc(N)cc1)c1ccccc1C(F)(F)F` is reported as 113%.
For `Cc1cncc2cccc(S(=O)(=O)N3CCCN(C(=O)CN)C[C@@H]3C)c12`, the remaining activity was 105%.
`Cc1cc(Nc2nc(-c3ccccc3)nc3ccccc23)n[nH]1` has a remaining activity of 86%.
`O=C1NC(=O)C(c2c[nH]c3ccccc23)=C1c1c[nH]c2ccccc12` has a remaining activity of 99.6%.
The remaining activity of `Nc1ncnc2c1cnn2-c1ccccc1` is reported as 94.5%.
`CCCC(=O)Oc1ccc2[nH]c(C(=O)c3cc4ccccc4[nH]3)cc2c1` has a remaining activity of 94.9%.
`CC(=O)c1ccc(N2CCOCC2)cc1O` has a remaining activity of 95.3%.
With `Oc1ccc(Nc2nc(-c3ccc(Cl)cc3)cs2)cc1` the remaining activity was 104%.
For `CC#CC(=O)Nc1cc2c(Nc3ccc(F)c(Cl)c3)ncnc2cn1`, the remaining activity was 91.1%.
`Fc1ccc(-c2nc3n(c2-c2ccncc2)CCS3)cc1` has a remaining activity of 105%.
For `CC[n+]1c(/C=C/N(C)c2ccccc2)n(-c2ccccc2)c2ccc(-c3nc4ccccc4s3)cc21`, the remaining activity was 103%.

Set 2
Target: Eukaryotic initiation factor 4A-I (EIF4A1, Homo sapiens, UniProt P60842)
UniProt P60842, sequence (whole entry, looked up): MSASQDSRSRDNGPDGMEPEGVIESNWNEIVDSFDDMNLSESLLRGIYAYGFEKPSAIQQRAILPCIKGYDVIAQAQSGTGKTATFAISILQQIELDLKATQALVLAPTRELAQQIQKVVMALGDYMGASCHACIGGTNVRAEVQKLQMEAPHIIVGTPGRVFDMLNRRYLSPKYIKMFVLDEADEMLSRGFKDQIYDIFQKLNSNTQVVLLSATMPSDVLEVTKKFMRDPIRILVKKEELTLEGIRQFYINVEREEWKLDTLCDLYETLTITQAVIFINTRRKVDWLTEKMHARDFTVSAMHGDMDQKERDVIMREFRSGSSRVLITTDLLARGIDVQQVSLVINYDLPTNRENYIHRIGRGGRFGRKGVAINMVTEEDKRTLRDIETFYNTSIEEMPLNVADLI
Observed: RNA clamping
Technique: fluorescence polarization
Tested at: concentration not given
Notes: mean of two replicates
Together with: FAM-labelled poly r(AG)8 RNA
`COC(=O)[C@H]1[C@@H](O)[C@@]2(O)c3c(OC)cccc3N(C)[C@@]2(c2ccc(OC)cc2)[C@@H]1c1ccccc1` — result for “fluorescence polarization change”: 0.2 mP.
Under “fluorescence polarization change”, `COC(=O)[C@@H]1[C@@H](c2ccccc2)[C@]2(c3ccc(OC)cc3)Oc3cc(OC)cc(OC)c3[C@@]23NC(c2ccc(Br)cc2)=N[C@@]13O` is recorded as 10.7 mP.
Under “fluorescence polarization change”, `COC(=O)[C@@H]1[C@@H](c2ccccc2)[C@]2(c3ccc(OC)cc3)Oc3cc(OC)cc(OC)c3[C@@]23NC(Cc2ccccc2)=N[C@@]13O` is recorded as 66.7 mP and 39 mP.
For `COC(=O)[C@H]1C(=O)[C@@]2(OC)c3c(OC)cc(OC)cc3O[C@@]2(c2ccc(OC)cc2)[C@@H]1c1ccccc1`, “fluorescence polarization change” read 7.1 mP.
For `COc1cc(OC)c2c(c1)O[C@@]1(c3ccc(Br)cc3)[C@H](c3ccccc3)[C@@H](C(=O)N(C)OC)[C@@H](O)[C@@]21O`, “fluorescence polarization change” read 68.1 mP.
`COc1ccc([C@@]23Oc4cc(OC)cc(OC)c4[C@]2(O)[C@H](O)[C@H](C(=O)c2ccccc2)[C@H]3c2ccccc2)cc1` — result for “fluorescence polarization change”: 6.8 mP.
`COC(=O)/C=C/Oc1nc(-c2ccccc2)nc2c1[C@@H](c1ccccc1)[C@]1(c3ccc(OC)cc3)Oc3cc(OC)cc(OC)c3[C@]21O`: “fluorescence polarization change” -2.6 mP.
Under “fluorescence polarization change”, `COC(=O)[C@H]1C(=O)[C@@]2(Nc3ccccc3)c3c(OC)cc(OC)cc3O[C@@]2(c2ccc(OC)cc2)[C@@H]1c1ccccc1` is recorded as -7.7 mP.
For `COC(=O)[C@H]1C(=O)[C@@]2(NCc3cccnc3)c3c(OC)cc(OC)cc3O[C@@]2(c2ccc(OC)cc2)[C@@H]1c1ccccc1`, “fluorescence polarization change” read -4 mP.
For `COCCN[C@@]12/C(=N/O)C[C@@H](c3ccccc3)[C@]1(c1ccc(OC)cc1)Oc1cc(OC)cc(OC)c12`, “fluorescence polarization change” read -1.6 mP.
Under “fluorescence polarization change”, `COc1cc(OC)c2c(c1)O[C@@]1(c3ccc(OC)c(O)c3)[C@H](c3ccccc3)[C@@H](C(=O)N(C)OC)[C@@H](O)[C@@]21O` is recorded as 61.3 mP.
`COC(=O)/C=C/Cn1c(-c2ccccc2)nc2c(c1=O)[C@@H](c1ccccc1)[C@]1(c3ccc(OC)cc3)Oc3cc(OC)cc(OC)c3[C@]21O`: “fluorescence polarization change” 11.2 mP.
Under “fluorescence polarization change”, `COC(=O)[C@@H]1[C@@H](c2ccccc2)[C@]2(c3ccc(OC)cc3)Oc3cc(OC)cc(OC)c3[C@@]23NC(c2ccc(C(F)(F)F)cc2)=N[C@@]13O` is recorded as 9.4 mP.
`COc1ccc([C@]23[C@@H](c4ccccc4)C[C@@H](O)[C@@]2(O)c2c(F)cccc2N3C)cc1`: “fluorescence polarization change” 10.3 mP.

Set 3
Compound: CCS(=O)(=O)c1cc2cc(C[C@@](O)(CC(C)(C)c3ccc(F)cc3C(N)=O)C(F)(F)F)[nH]c2cn1
Observed: binding
Technique: radioligand binding
Tested at: 10 µM
The inhibition was -8.82% (CHRM2 (Homo sapiens, UniProt P08172)).
It gave 2.6% for inhibition (DRD1 (Homo sapiens, UniProt P21728)).
ADRB3 (Homo sapiens, UniProt P13945) — inhibition: 0.63%.
For CHRM4 (Homo sapiens, UniProt P08173): inhibition read 18.2%.
The inhibition was 1.64% (ADRA1B (Homo sapiens, UniProt P35368)).
For HTR7 (Homo sapiens, UniProt P34969): inhibition read 4.44%.
The inhibition was 6.84% (HRH2 (Homo sapiens, UniProt P25021)).
It gave 6.5% for inhibition (ADRA2B (Homo sapiens, UniProt P18089)).
HRH1 (Homo sapiens, UniProt P35367) — inhibition: 6.19%.
For HRH4 (Homo sapiens, UniProt Q9H3N8): inhibition read 2.05%.
The inhibition was -14.8% (ADRA1D (Homo sapiens, UniProt P25100)).
It gave 5.83% for inhibition (ADRA2C (Homo sapiens, UniProt P18825)).

Set 4
Organism: Sarcocystis neurona
Observed: parasite activity
Tested at: 10 µM
Time: 96 h
Under activity class, `C[C@H](CCC(=O)O)[C@H]1CC[C@H]2[C@@H]3C(=O)C[C@@H]4CC(=O)CC[C@]4(C)[C@H]3CC(=O)[C@]12C` is recorded as “inactive”.
Under activity class, `COCCOC(=O)C1=C(C)NC(C)=C(C(=O)OC(C)C)C1c1cccc([N+](=O)[O-])c1` (stereo not drawn) is recorded as “inactive”.
Under activity class, `C#C[C@]1(OC(C)=O)CC[C@H]2[C@@H]3CCC4=CC(=O)CC[C@@H]4[C@H]3CC[C@@]21C` is recorded as “inactive”.
Under activity class, `CC(C)[C@H]1CC[C@H](C(=O)N[C@H](Cc2ccccc2)C(=O)O)CC1` is recorded as “inactive”.
For `CC(C)n1c(/C=C/C(O)CC(O)CC(=O)O)c(-c2ccc(F)cc2)c2ccccc21` (stereo not drawn), activity class read “inactive”.
For `C=CC1=C(C(=O)O)N2C(=O)[C@@H](NC(=O)/C(=N\O)c3csc(N)n3)[C@H]2SC1`, activity class read “inactive”.
Under activity class, `Cn1c(=O)c2[nH]cnc2n(C)c1=O` is recorded as “inactive”.
`CCS(=O)(=O)CCn1c([N+](=O)[O-])cnc1C`: activity class “inactive”.
`CCn1cc(C(=O)O)c(=O)c2ccc(C)nc21`: activity class “inactive”.
For `Cc1ccc(N(CC2=NCCN2)c2cccc(O)c2)cc1`, activity class read “inactive”.
For `COc1ccc(-c2oc3c(CC=C(C)C)c(O[C@@H]4O[C@H](CO)[C@@H](O)[C@H](O)[C@H]4O)cc(O)c3c(=O)c2O[C@@H]2O[C@@H](C)[C@H](O)[C@@H](O)[C@H]2O)cc1`, activity class read “inactive”.
`CC1CNc2c(cccc2S(=O)(=O)N[C@@H](CCCNC(=N)N)C(=O)N2CC[C@@H](C)C[C@@H]2C(=O)O)C1` (stereo partly drawn) — result for activity class: “inactive”.
For `CCC(=O)O[C@]1(C(=O)CCl)[C@@H](C)C[C@H]2[C@@H]3CCC4=CC(=O)C=C[C@]4(C)[C@@]3(F)[C@@H](O)C[C@@]21C`, activity class read “inactive”.
`CC(C)NCC(O)c1ccc(NS(C)(=O)=O)cc1` (stereo not drawn): activity class “inactive”.
`CC(C)NCC(O)COc1ccc(CC(N)=O)cc1` (stereo not drawn) — result for activity class: “inactive”.

Some of these lines once more (set 1):
`Nc1nccc(-c2c(-c3ccc(F)cc3)ncn2C2CCNCC2)n1` gave a remaining activity of 102%.
The remaining activity of `Nc1ncnc2c1cnn2-c1ccccc1` is reported as 94.5%.
`O=C1NC(=O)C(c2c[nH]c3ccccc23)=C1c1c[nH]c2ccccc12` has a remaining activity of 99.6%.
The remaining activity of `N#CC(=C(N)Sc1ccc(N)cc1)c1ccccc1C(F)(F)F` is reported as 113%.
`Fc1ccc(-c2nc3n(c2-c2ccncc2)CCS3)cc1` has a remaining activity of 105%.
With `Nc1nc(Nc2ccc(S(N)(=O)=O)cc2)nn1C(=O)c1c(F)cccc1F` the remaining activity was 86.2%.
`O=S(=O)(NCCNC/C=C/c1ccc(Br)cc1)c1cccc2cnccc12` gave a remaining activity of 91.6%.
For `Cc1cncc2cccc(S(=O)(=O)N3CCCN(C(=O)CN)C[C@@H]3C)c12`, the remaining activity was 105%.
